# Measured values collected from several papers.
# Compare with care: the assays were run in different laboratories. ± marks the error that the study gave.
SMILES,test,test system,conditions,pKa
Cc1ccccc1CN1C(=O)C2=C(CCN(Cc3ccccc3)C2)N2CCN=C12,potentiometric titration,water,second of two pKa,4.99
C=CCOc1cccc(C(=O)O)c1,UV-metric,,"25 °C, aqueous extrapolated",3.9
O=C(Nc1cc(C2CCCCC2)[nH]n1)c1ccc(Br)cc1,,,,4.35
CN(C)c1cc(-c2ccncc2)c(-c2cccc3ccccc23)nn1,,,,< 3.5
O=C(O)CNC(=O)c1ncccc1O,,,second acidic centre,7.6
CCc1nnc(NS(=O)(=O)c2ccc(NC(=O)c3ccc(F)cc3)cc2)s1,,,,4.72
CC(=O)C(C)n1ncn(-c2ccc(N3CCN(c4ccc(OC[C@H]5CO[C@](Cn6cncn6)(c6ccc(Cl)cc6Cl)O5)cc4)CC3)cc2)c1=O (stereo partly drawn),,,,3.33
O=C(O)C(F)(F)F,19F NMR titration,MeOH/water,27 °C,0.03
CCCCCCCCCCCCNC,extrapolated from shorter analogues,,,10.8
O=C(NCCN1CCCC1)c1cc(-c2ccc(CN3CCOCC3)cc2)nc2ccc(F)cc12,potentiometric titration,water with 10% DMSO,first pKa,8.71 ± 0.11
N=C(N)c1ccc2cc(C#Cc3cccc(OC4CCCC4)c3)ccc2c1,,,,10.9
CO[C@@H]1[C@H](O)[C@@H](CO)O[C@H]1n1c([N+](=O)[O-])nc2c(=O)[nH]c(N)nc21,"UV absorption, measured: N1 deprotonation",water,25 °C,8.33
O=S([O-])(=S)c1ccccc1.[Na+],,,,~1.32
COc1cc(O)c2nc(C)ccc2c1,capillary electrophoresis,,,9.4
O=C(O)CNC(=O)c1ncc(-c2ccc(Cl)cc2)cc1O,,,second acidic centre,7.4
O=C(NCc1nc(-c2ccc(C(F)(F)F)cc2)cs1)[C@H]1CCCN(C(=O)CO[C@H]2CCCNC2)C1,potentiometric titration,,,9.7
COc1cc(NC(=O)c2ccc3cc(C(=N)N)ccc3c2)cc(OC(C)C)c1,,,,10.8
CCCCCCCCCCNC,extrapolated from shorter analogues,,,10.8
O=C(O)CNC(=O)c1c(O)cc(CCc2ccccc2)n2ncnc12,,,second acidic centre,7
O=C(O)c1ccc(C(=O)Nc2cc(C3CC3)n[nH]2)cc1,,,,2.79
CN1CCC(COc2cnc(-c3cccc(Cn4nc(-c5cccc(C#N)c5)ccc4=O)c3)nc2)CC1,,,pKa 1,9.5
Cc1ccc2ccc(C#N)c(O)c2n1,capillary electrophoresis,,,7.1
O=C1c2c(O)cc(O)cc2O[C@H](c2cc(O)c(O)c(O)c2)[C@H]1O,UV-Vis spectroscopy,,,7 to 8
C=C(F)C(=O)N1CCN(c2nc(OC[C@@H]3CCCN3C)nc3c2CCN(c2cccc4cccc(Cl)c24)C3)C[C@@H]1CC#N,potentiometric,,second basic pKa,8.82
N[C@@H]1C[C@]1(F)c1ccc(C(F)(F)F)cc1 (relative stereo),titration,,"21 °C, together with: 0.1 M KNO3",7
CCCCCCCCCCN(C)C,extrapolated from shorter analogues,,,10
CC(C)(C)N1Cc2cccc(n2)CN(C(C)(C)C)Cc2cccc(n2)C1,,0.1 M NaCl,"25 °C, H2L2+ deprotonation",7.71
O=C(O)c1ccc2nc(-c3cc(Cl)cc(Cl)c3)oc2c1,in-house determination,,,3.6
COCCc1ccc(OCC(O)CNC(C)C)cc1 (stereo not drawn),n-hexane/buffer partitioning,aqueous,pH 6,9.58 ± 0.05
CCCCC1=NC2(CCCC2)C(=O)N1Cc1ccc(-c2ccccc2S(=O)(=O)Nc2noc(C)c2C)c(COCC)c1,,,acidic,5.31
COc1ccc(NC(=O)c2ccco2)cc1NC(=O)c1cccnc1,,,,2.99
CCCCCCCCCCCCCCCCNC,extrapolated from shorter analogues,,,10.8
COC(=O)c1ccccc1Oc1nc(NC(C)C)nc(NC(C)C)n1,,,,3.18
O=C(O)CNC(=O)c1ncc(-c2cccc(Cl)c2)cc1O,,,second acidic centre,7.3
NC(=O)c1ccc(C(=O)Nc2cc(C3CC3)[nH]n2)cc1,,,,3.05
CCC(C)n1ncn(-c2ccc(N3CCN(c4ccc(OCC5COC(Cn6cncn6)(c6ccc(Cl)cc6Cl)O5)cc4)CC3)cc2)c1=O (stereo not drawn),,,monoprotic base,3.6
